{"data": "Measured values collected from several papers", "CNR2": "Cannabinoid receptor 2 (CNR2, Homo sapiens, UniProt P34972)", "Genome polyprotein NS2B-NS3 protease": "Genome polyprotein, NS2B-NS3 protease (dengue virus type 2, UniProt P29990)", "KAI2": "KAI2 (Arabidopsis thaliana, UniProt Q9SZU7)", "note": "Compare with care: the assays were run in different laboratories. Several values in a cell are separate wells, animals, samples, runs or records. ± gives the spread as reported."}
{"SMILES": "O=C(Nc1cnccc1-c1ccc([18F])nc1)c1ccnc(NC(=O)C2CC2)c1", "assay": "PET imaging", "test system": "FVB/NJ mice, both sexes, liver", "conditions": "intravenous, 10 min", "quantity": "median SUV", "result": 8.81}
{"SMILES": "CCOC(=O)C(CC)(CCCSCCOCCOCCOCCOCCNc1ccc([N+](=O)[O-])c2nonc12)NC(=O)c1ccc(C2CC2)c(Cc2ccc(F)cc2)n1 (stereo not drawn)", "tested on": "CNR2", "assay": "ligand displacement, radioligand", "conditions": "cell membranes", "quantity": "Ki", "result": "0.038 µM"}
{"SMILES": "CC(=O)[O-].O.O.O.O.[Co+2].[O-]c1ccc(Br)cc1C=NCCN1CCOCC1", "assay": "nitric oxide scavenging", "conditions": "80 µM", "quantity": "inhibition", "result": "20.9%"}
{"SMILES": "O=C1C2CC3CC1CC(C(=O)N1CCN(c4ccc([N+](=O)[O-])c5ncccc45)CC1)(C3)C2", "tested on": "Salmonella typhimurium", "assay": "Ames test", "test system": "TA98", "conditions": "0.13 µg/well, with S9", "how to read": "relative to: vehicle", "quantity": "revertant fold increase", "result": 1.1}
{"SMILES": "Cc1onc(-c2ccc(F)cc2)c1C(=O)Nc1cccc(C(N)=O)c1", "tested on": "Genome polyprotein NS2B-NS3 protease", "assay": "reporter gene", "test system": "HeLa", "quantity": "EC50", "result": "> 50 µM"}
{"SMILES": "CNC(=O)C1CCCN(C(=O)C2CC3CCC2N3C(=O)[C@@H]2C[C@@H](O)CN2C(=O)NCc2cccc(Cl)c2F)C1 (mixture of isomers)", "tested on": "CYP3A4 (human)", "assay": "inhibitor, time-dependent inhibition", "conditions": "0.617 µM, preincubated with NADPH, together with: testosterone substrate", "how to read": "relative to: negative control", "quantity": "remaining activity", "result": "97.1%"}
{"SMILES": "O=C(Cc1ccc(OCc2ccccc2)cc1)NC1(C(=O)O)CCN(C(=O)c2ccc(-c3cccc(Cl)c3)cc2)CC1", "tested on": "GNRHR (Homo sapiens, UniProt P30968)", "assay": "inositol phosphate, agonist", "quantity": "EC50", "result": "> 10 µM"}
{"SMILES": "O=C(O)c1cc(-c2ccccc2)n(-c2ccccc2)n1", "tested on": "Genome polyprotein NS2B-NS3 protease", "assay": "reporter gene", "test system": "HeLa", "quantity": "EC50", "result": "37 µM"}
{"SMILES": "O=C(N1CCc2ccccc21)n1ccnc1", "tested on": "KAI2", "assay": "binding, ITC", "quantity": "Kd", "result": "111 µM"}
{"SMILES": "CCCC[C@H](NC(=O)COCCOCCNC(=O)CN1CCN(CC(=O)O)CCN(CC(=O)O)CC1)C(=O)N[C@H]1CC(=O)NCCCC[C@@H](C(N)=O)NC(=O)[C@H](Cc2c[nH]c3ccccc23)NC(=O)[C@H](CCCNC(=N)N)NC(=O)[C@@H](Cc2ccccc2)NC(=O)[C@H](Cc2c[nH]cn2)NC1=O [technetium-99m labelled]", "test system": "C57 mouse, lung", "conditions": "intravenous, 0.037 MBq, 2 h", "quantity": "tissue uptake", "result": "0.29 ± 0.11 %ID/g"}
{"SMILES": "Cc1ncsc1-c1ccc(C(C)NC(=O)C2CC(O)CN2C(=O)C(NC(=O)CCCCCCCCCCN2CCCC(Nc3ncc(Cl)c(Nc4ccccc4S(=O)(=O)C(C)C)n3)C2)C(C)(C)C)cc1 (stereo not drawn)", "tested on": "22Rv1", "assay": "RNA-seq, item: ZNF696 mRNA", "conditions": "concentration not given", "how to read": "relative to: DMSO", "quantity": "log2 fold change", "result": -1.47}
{"SMILES": "Cn1c(=O)n(C2CCC(=O)NC2=O)c2ccc(C3CCN(CC(=O)Nc4cccc(CS(=O)(=O)N5CC[C@H](Nc6cccc(-c7sc(C(=O)O)c(OCC(=O)O)c7Cl)c6)CC5(C)C)c4)CC3)cc21 (stereo partly drawn)", "tested on": "Tyrosine-protein phosphatase non-receptor type 1 (Mus musculus, UniProt P35821)", "assay": "degrader, Western blot", "test system": "B16-F10", "conditions": "24 h", "quantity": "DC50", "result": "0.011 µM"}
{"SMILES": "CC(C)Oc1cc(Cl)ccc1CNc1cc(-c2ccccc2)nc2ncnn12", "tested on": "GPR3 (Homo sapiens, UniProt P46089, Q215A/Y135A)", "assay": "cAMP level, cAMP GloSensor", "quantity": "EC50", "result": "0.793 µM"}
{"SMILES": "CC(C)(C)n1cc(CN(Cc2cn(CC(=O)O)nn2)Cc2cn(C(C)(C)C)nn2)nn1", "tested on": "Cu(I)", "assay": "binding, bicinchoninic acid competition", "conditions": "1000 µM, together with: bicinchoninic acid 40 µM", "quantity": "Kd", "result": "0.000104 µM"}
{"SMILES": "COC1CN([C@H]2CC[C@H]([C@@]3(C)Oc4c(Cl)cc(C(=O)NCc5c(SC)cc(C)[nH]c5=O)c(C)c4O3)CC2)C1", "assay": "RNA-seq, item: PPM1E mouse homolog", "test system": "mouse, HT-1376 xenograft, whole blood", "conditions": "dose not given", "how to read": "relative to: vehicle", "quantity": "log2 fold change", "result": 0.397}
{"SMILES": "CC(C)(C)n1cc(CN(Cc2cn(CCOCCOCCOCCOCCOCCO)nn2)Cc2cn(C(C)(C)C)nn2)nn1", "tested on": "Cu(I)", "assay": "binding, bicinchoninic acid competition", "conditions": "8000 µM, together with: bicinchoninic acid 40 µM", "quantity": "Kd", "result": "0.000276 µM"}
{"SMILES": "Cc1cccc2c1N(C(=O)n1ccnn1)CC2", "tested on": "KAI2 (Arabidopsis thaliana, UniProt Q9SZU7, F157Y)", "assay": "ITC", "conditions": "F157Y mutant", "quantity": "Kd", "result": "520 µM and 320 µM and 495 µM"}
{"SMILES": "NC(=O)c1cccc(NC(=O)c2cc(-c3ccc(Cl)cc3)n(-c3ccccc3)n2)c1", "tested on": "Genome polyprotein NS2B-NS3 protease", "assay": "reporter gene", "test system": "HeLa", "quantity": "EC50", "result": "21 µM"}
{"SMILES": "Cc1cccc2c1N(C(=O)n1nccn1)CC2", "tested on": "KAI2", "assay": "binding, ITC", "quantity": "Kd", "result": "210 µM"}
{"SMILES": "CCOC(=O)[C@@](CC)(CCCSCCOCCOCCN)NC(=O)c1ccc(C2CC2)c(Cc2ccc(F)cc2)n1", "tested on": "CNR2", "assay": "ligand displacement, radioligand", "conditions": "cell membranes", "quantity": "Ki", "result": "0.0046 µM"}
{"SMILES": "O=C(c1ccco1)N1CCc2ccccc21", "tested on": "KAI2", "assay": "ITC", "quantity": "Kd", "result": "251 µM"}
{"SMILES": "CCOC(=O)[C@@](CC)(CCCSCCOCCOCCNC(=O)OC(C)(C)C)NC(=O)c1ccc(C2CC2)c(Cc2ccc(F)cc2)n1", "tested on": "CNR2", "assay": "cAMP, agonist", "quantity": "EC50", "result": "0.023 µM"}
{"SMILES": "NC(=O)c1cccc(NC(=O)c2cc(-c3ccccc3)n(-c3ccc(Br)cc3)n2)c1", "tested on": "Genome polyprotein NS2B-NS3 protease", "assay": "reporter gene", "test system": "HeLa", "quantity": "EC50", "result": "12 µM"}
{"SMILES": "Cn1c(=O)c(C(N)=O)c(N2CCC(Oc3ccc(OC(F)(F)F)cc3)CC2)c2ccccc21", "tested on": "DGKA (Homo sapiens, UniProt P23743)", "assay": "DGKα-YFP translocation, high-content imaging", "test system": "Jurkat", "quantity": "EC50", "result": "0.113 µM"}
{"SMILES": "CNS(=O)(=O)Nc1nccc(Cc2c(C)c3ccc(Oc4ncccc4F)cc3oc2=O)c1F", "tested on": "U-2940", "assay": "cell viability", "conditions": "7 days", "quantity": "IC50", "result": "> 1 µM"}
{"SMILES": "O=C(N1CCc2cccc(F)c21)n1ccnn1", "tested on": "KAI2", "assay": "isothermal titration calorimetry", "quantity": "Kd", "result": "192 µM and 149 µM and 151 µM"}
{"SMILES": "O=C(O)C(Cc1c[nH]cn1)N1C(=O)c2ccc3c4ccc5c6c(ccc(c7ccc(c2c37)C1=O)c64)C(=O)N(CCN1CCCCC1)C5=O (stereo not drawn)", "tested on": "hTERT promoter G-quadruplex DNA", "assay": "binding, thiazole orange displacement", "conditions": "pH 6", "quantity": "DC50", "result": "0.48 ± 0.17 µM"}
{"SMILES": "O=C(N1CCc2cccc(Cl)c21)n1ccnn1", "tested on": "KAI2", "assay": "binding, ITC", "quantity": "Kd", "result": "179 µM"}
{"SMILES": "CN1CCCNC(=O)c2cccc(c2)C(=O)NCCCN(C)CCCNc2cccc3c2C(=O)c2cccc(c2C3=O)NCCC1", "tested on": "HSC-2", "assay": "cell growth or viability, CCK-8", "conditions": "5 µM, 48 h", "quantity": "viability", "result": "16.3%"}
{"SMILES": "CC(C)C[C@H](NC(=O)[C@H](Cc1ccc(O)cc1)NC(=O)[C@@H](CCCNC(=N)N)NC(=O)[C@@H](CO)NC(=O)[C@H](Cc1ccccc1)NC(=O)[C@H](CC1CCCCC1)NC(=O)[C@H](CC(=O)O)NC(=O)CN1CCN(CC(=O)O)CCN(CC(=O)O)CCN(CC(=O)O)CC1)C(=O)N[C@@H](Cc1c[nH]c2ccccc12)C(=O)N[C@@H](CO)C(=O)O [copper-64 labelled]", "test system": "human, lung", "conditions": "concentration not given, 24 h", "quantity": "activity concentration", "result": "126 Bq/mL and 162 Bq/mL and 89.6 Bq/mL and 290 Bq/mL and 81.7 Bq/mL and 144 Bq/mL"}
{"SMILES": "O=C1c2ccc3c4ccc5c6c(ccc(c7ccc(c2c37)C(=O)N1CCN1CCCCC1)c64)C(=O)N(CCN1CCCCC1)C5=O", "tested on": "hTERT promoter G-quadruplex DNA", "assay": "binding, thiazole orange displacement", "conditions": "pH 7", "quantity": "DC50", "result": "0.72 ± 0.18 µM"}
{"SMILES": "O=C(Nc1cccc(CNc2ncccn2)c1)c1cc(-c2ccccc2)n(-c2ccccc2)n1", "tested on": "Genome polyprotein NS2B-NS3 protease", "assay": "reporter gene", "test system": "HeLa", "quantity": "EC50", "result": "2.2 µM"}
{"SMILES": "Cc1nn(-c2cccc(N)c2)c(=O)c2cnc(Nc3ccc(N4CCNCC4)cc3)nc12", "tested on": "EPHA3 (Homo sapiens, UniProt P29320)", "assay": "kinase activity, inhibitor, SelectScreen kinase profiling", "quantity": "IC50", "result": "> 10 µM"}
{"SMILES": "Cc1ccc(-n2nc(C(N)=O)cc2-c2ccc(CC(C)C)cc2)cc1", "tested on": "Genome polyprotein NS2B-NS3 protease", "assay": "reporter gene", "test system": "HeLa", "quantity": "EC50", "result": "9.9 µM"}
{"SMILES": "O=C(O)C(Cc1c[nH]cn1)N1C(=O)c2ccc3c4ccc5c6c(ccc(c7ccc(c2c37)C1=O)c64)C(=O)N(C(Cc1c[nH]cn1)C(=O)O)C5=O (stereo not drawn)", "tested on": "hTERT promoter G-quadruplex DNA", "assay": "binding, thiazole orange displacement", "conditions": "pH 6", "quantity": "DC50", "result": "> 2.5 µM"}
{"SMILES": "C=CC(=O)N1C[C@H](C)N(c2nc(OC[C@@]34CCCN3C[C@H](F)C4)nc3c(F)c(-c4ccc(F)c5sc(N)c(C#N)c45)c(C(F)(F)F)cc23)C[C@H]1C", "tested on": "GTPase KRas, GppNHp-bound (KRAS, Homo sapiens, UniProt P01116)", "assay": "SPR", "quantity": "Kd", "result": "12 µM"}
{"SMILES": "C=CC(=O)Nc1cccc(Cn2ncc3cnc(Nc4cnn(CCOC)c4)nc32)c1", "tested on": "ULK1 human", "assay": "binding, KINOMEscan", "conditions": "100 nM", "how to read": "lower = stronger binding", "quantity": "percent of control", "result": "63%"}
{"SMILES": "C=CC(=O)N1CC2(CCN(c3nc(OC4CCN(CCCOC)CC4)nc4c(OCC(F)(F)F)c(-c5c(C)ccc6[nH]ncc56)c(C5CC5)cc34)CC2)C1", "tested on": "GTPase KRas, GDP-bound (KRAS, Homo sapiens, UniProt P01116, A146T)", "assay": "binding, surface plasmon resonance", "quantity": "Kd", "result": "1.1 ± 0.12 µM"}
{"SMILES": "O=C(c1cc(-c2ccccc2)n(-c2ccccc2)n1)N1CCC(N2CCCC2)CC1", "tested on": "Genome polyprotein NS2B-NS3 protease", "assay": "reporter gene", "test system": "HeLa", "quantity": "EC50", "result": "22 µM"}
{"SMILES": "CCOC(=O)C(CC)(CCCSCCOCCN)NC(=O)c1ccc(C2CC2)c(Cc2ccc(F)cc2)n1 (stereo not drawn)", "tested on": "CNR2", "assay": "ligand displacement, radioligand", "conditions": "cell membranes", "quantity": "Ki", "result": "0.06 µM"}
{"SMILES": "Nc1ncc(-c2cc(-c3cnn(CC(F)(F)F)c3)ncc2F)nc1C(=O)NC1CNCC(F)C1 (stereo not drawn)", "tested on": "PKMYT1", "assay": "KINOMEscan", "conditions": "1 µM", "how to read": "relative to: DMSO control", "quantity": "remaining binding", "result": "56%"}
{"SMILES": "O=C(Nc1cccc(CO)c1)c1cc(-c2ccccc2)n(-c2ccccc2)n1", "tested on": "Genome polyprotein NS2B-NS3 protease", "assay": "reporter gene", "test system": "HeLa", "quantity": "EC50", "result": "9.8 µM"}
